Results from different studies.
Each numbered part is a random draw from the data of one study; scales do not carry over between parts. Positions count from the first letter of the parent shown.

Block 1
Target: XBP1, bZIP domain (human)
Method: DHFR protein complementation
Medium: yeast
Setting: single substitutions, most at no-binding floor
Baseline: wild-type JUN-FOS pair
Direction: higher = stronger binding
Starting sequence: JUN, bZIP domain (human); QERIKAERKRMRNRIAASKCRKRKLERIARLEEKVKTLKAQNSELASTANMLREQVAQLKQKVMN; partner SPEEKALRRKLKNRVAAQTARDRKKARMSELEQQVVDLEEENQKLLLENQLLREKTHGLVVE
`Q41R` gave a binding fitness of -0.711 natural log.
`A57D` has a binding fitness of -0.611 natural log.
`R53N` has a binding fitness of -1.32 natural log.
`A57H` has a binding fitness of -1.01 natural log.
For `I28R`, the binding fitness was -1.12 natural log.
`Q55S` gave a binding fitness of -1.17 natural log.
`V35A` gave a binding fitness of -1.36 natural log.
`R53S` gave a binding fitness of -1.39 natural log.

Block 2
Target: PABPC1L2, full length, GST fusion (mouse, UniProt A0ABA7IW68)
Method: RNAcompete
Form: RNA
Medium: in vitro
Tested at: 20 nM
Setting: 7-mer, probes averaged, single round
Baseline: mean of 7-mers
Direction: higher = stronger binding
With `AUAAGUA` the 7-mer Z-score was 0.095.
With `UCAAGAG` the 7-mer Z-score was -0.0264.
The 7-mer Z-score of `GUUCCUU` is reported as -0.115.
The 7-mer Z-score of `CAGGGUG` is reported as -0.0246.
`UGAAGAA` has a 7-mer Z-score of 0.075.
The 7-mer Z-score of `AAAGAAG` is reported as 2.82.
The 7-mer Z-score of `CUGUAGA` is reported as -0.0464.
`UUAUCAA` has a 7-mer Z-score of -0.0899.

Block 3
Target: CCND3, cyclin fold, Cln2 fusion (human)
Method: yeast growth competition, sequencing
Medium: yeast
Setting: weak parent motif
Baseline: not given
Direction: higher = stronger binding
Starting sequence: viral docking peptide; TSVRRALFTGGSD
Under “normalised enrichment score”, `T9W` is recorded as 0.469.
Under “normalised enrichment score”, `S12V` is recorded as -0.0922.
`L7N`: “normalised enrichment score” 0.441.
`A6C`: “normalised enrichment score” 0.18.
`S2A` — result for “normalised enrichment score”: 0.199.
`G10V` — result for “normalised enrichment score”: -0.386.
`L7I` — result for “normalised enrichment score”: -0.0465.
`R5E` — result for “normalised enrichment score”: -0.11.
For `V3H`, “normalised enrichment score” read 0.205.
For `S12T`, “normalised enrichment score” read -0.166.
`F8E` — result for “normalised enrichment score”: -0.0232.
`F8Q` — result for “normalised enrichment score”: 0.344.
`G11I` — result for “normalised enrichment score”: -0.0408.
Under “normalised enrichment score”, `T9S` is recorded as 0.114.
Under “normalised enrichment score”, `T9V` is recorded as -0.00796.
`G10W` — result for “normalised enrichment score”: 0.17.
Under “normalised enrichment score”, `A6P` is recorded as -0.116.
Under “normalised enrichment score”, `V3R` is recorded as 0.141.
`R4F`: “normalised enrichment score” -0.227.
`S2Y`: “normalised enrichment score” -0.131.
`S12A` — result for “normalised enrichment score”: 0.0742.
`T9I` — result for “normalised enrichment score”: -0.139.
Under “normalised enrichment score”, `R4W` is recorded as 0.274.
`V3M`: “normalised enrichment score” 0.232.
`L7C` — result for “normalised enrichment score”: 0.232.

Block 4
Target: UDP-N-acetylglucosamine--peptide N-acetylglucosaminyltransferase 110 kDa subunit (OGT, Homo sapiens, UniProt O15294)
UniProt O15294, sequence (whole entry, looked up): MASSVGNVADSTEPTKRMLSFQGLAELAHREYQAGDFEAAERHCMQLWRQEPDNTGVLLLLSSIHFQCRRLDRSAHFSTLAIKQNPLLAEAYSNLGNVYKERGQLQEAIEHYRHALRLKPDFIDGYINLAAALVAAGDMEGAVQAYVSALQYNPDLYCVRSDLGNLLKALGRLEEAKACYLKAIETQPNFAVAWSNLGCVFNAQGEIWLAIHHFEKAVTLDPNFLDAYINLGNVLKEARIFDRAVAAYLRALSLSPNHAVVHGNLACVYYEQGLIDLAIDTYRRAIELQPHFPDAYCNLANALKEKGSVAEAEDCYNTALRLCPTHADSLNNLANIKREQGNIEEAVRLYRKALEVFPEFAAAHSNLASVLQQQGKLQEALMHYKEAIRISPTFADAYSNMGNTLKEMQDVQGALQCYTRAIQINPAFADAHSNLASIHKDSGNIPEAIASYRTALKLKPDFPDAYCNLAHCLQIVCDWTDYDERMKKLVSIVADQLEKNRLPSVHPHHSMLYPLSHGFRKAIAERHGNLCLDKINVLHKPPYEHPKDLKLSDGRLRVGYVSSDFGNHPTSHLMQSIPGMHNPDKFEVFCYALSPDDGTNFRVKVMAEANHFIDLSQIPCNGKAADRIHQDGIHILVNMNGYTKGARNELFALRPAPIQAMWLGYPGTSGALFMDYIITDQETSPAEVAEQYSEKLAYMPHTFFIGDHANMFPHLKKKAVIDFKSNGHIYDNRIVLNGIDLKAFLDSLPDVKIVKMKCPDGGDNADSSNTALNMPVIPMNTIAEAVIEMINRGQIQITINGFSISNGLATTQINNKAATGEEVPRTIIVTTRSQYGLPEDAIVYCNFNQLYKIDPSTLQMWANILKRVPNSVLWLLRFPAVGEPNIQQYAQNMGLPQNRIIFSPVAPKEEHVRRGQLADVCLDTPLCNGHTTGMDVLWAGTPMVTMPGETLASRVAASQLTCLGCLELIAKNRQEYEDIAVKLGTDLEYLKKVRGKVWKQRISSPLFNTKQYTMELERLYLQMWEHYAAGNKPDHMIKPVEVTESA
Effect on: binding
Method: phage display NGS
Form: peptide
Setting: panning round 2
Baseline: input library
`FLSSFPPKYPIEYET` — result for “minimum log2 enrichment ratio”: 2.93.
For `GPMQMFQPYYQIDYA`, “minimum log2 enrichment ratio” read 3.18.
For `NDMFAPKYQLTWREF`, “minimum log2 enrichment ratio” read 5.37.
Under “minimum log2 enrichment ratio”, `WPVQPMYQIFGRYPE` is recorded as 2.96.

Block 5
Target: Centromere-binding protein 1, full length, His-tagged (CBF1, Saccharomyces cerevisiae, UniProt P17106, residues 1-351)
UniProt P17106, sequence (whole entry, looked up): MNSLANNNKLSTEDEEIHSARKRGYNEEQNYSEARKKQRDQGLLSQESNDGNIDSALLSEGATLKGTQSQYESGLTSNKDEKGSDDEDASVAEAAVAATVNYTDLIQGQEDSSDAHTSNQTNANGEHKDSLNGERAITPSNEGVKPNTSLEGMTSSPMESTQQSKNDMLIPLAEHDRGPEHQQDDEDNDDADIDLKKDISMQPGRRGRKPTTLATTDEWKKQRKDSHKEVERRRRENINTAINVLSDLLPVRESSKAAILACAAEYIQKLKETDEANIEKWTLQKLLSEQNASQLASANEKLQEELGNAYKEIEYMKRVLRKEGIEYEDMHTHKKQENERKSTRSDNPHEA
Method: competition protein-binding microarray
Form: double-stranded DNA, one strand shown
Medium: in vitro
Tested at: 2 µM
Setting: whole 60-bp probe, lowest competitor level
With: Pho4 competitor, 0.05 µM
Direction: higher = stronger binding
For `ATAGAACGCAGAGCCCACGTGTGCCTGGCACTTGGCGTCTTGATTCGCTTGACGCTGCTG`, the fluorescence intensity was 462 a.u.
With `TACCAATCGATTTGTCACCTGCAAAAGGACCTGGATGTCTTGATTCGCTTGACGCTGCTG` the fluorescence intensity was 107 a.u.
For `GAACAAGACAATCCACACGGGATTTTGACGCCCCTAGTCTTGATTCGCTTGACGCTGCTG`, the fluorescence intensity was 89.8 a.u.
The fluorescence intensity of `CATACCCAACCTTGCTACGTGGGTGAAGATATTTGTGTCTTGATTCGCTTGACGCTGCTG` is reported as 72.2 a.u.
`TGCGCAACAACTTGCCTGGTGGGTGTATGTCTAGAAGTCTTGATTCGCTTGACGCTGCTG` has a fluorescence intensity of 60.5 a.u.
`CGTCCTAGTGATTGTCACTGAACTTCCATGAGGAAGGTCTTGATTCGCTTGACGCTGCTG` gave a fluorescence intensity of 89.2 a.u.
The fluorescence intensity of `ACTGGCAGCTCATTACTCGTGACGGAGCTTTAACAGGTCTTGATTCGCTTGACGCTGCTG` is reported as 201 a.u.
The fluorescence intensity of `TTCGATCAAGGCAACAACGTGGTGAAAACCGTACTTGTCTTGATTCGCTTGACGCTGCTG` is reported as 103 a.u.

Repeated from above (block 3):
`G10W` — result for “normalised enrichment score”: 0.17.
`G10V` — result for “normalised enrichment score”: -0.386.
Under “normalised enrichment score”, `T9V` is recorded as -0.00796.
Under “normalised enrichment score”, `T9W` is recorded as 0.469.
`L7C` — result for “normalised enrichment score”: 0.232.
For `S12T`, “normalised enrichment score” read -0.166.
Under “normalised enrichment score”, `V3R` is recorded as 0.141.
`T9I` — result for “normalised enrichment score”: -0.139.
